Experimental data pooled from the literature.
Each line is one published result; not all experiments were run side by side. Values joined by “and” are separate records of one study, mostly repeats; a detail may differ. ± marks the error that the study gave. ≈ marks a conversion by molar mass, not a printed value.

| SMILES | target or system | assay | test system | setting | how to read | endpoint | value |
| --- | --- | --- | --- | --- | --- | --- | --- |
| CC(C)C[C@H](NC(=O)C[C@H](O)[C@H](CC(C)C)NC(=O)[C@H](Cc1c[nH]cn1)NC(=O)CNC(=O)[C@@H](NC(=O)[C@H](C)NC(=O)[C@H](Cc1c[nH]c2ccccc12)NC(=O)[C@H](CCC(N)=O)NC(=O)[C@@H](Cc1ccccc1)NC(=O)COCCOCCNC(=O)CCC(C(=O)O)N1CCN(CC(=O)O)CCN(CC(=O)O)CCN(CC(=O)O)CC1)C(C)C)C(N)=O (stereo partly shown) [lutetium-177 labelled] |  |  | BALB/c nu/nu mice, female, PC-3 xenograft tumour | intravenous, 100 pmol, 48 h, added: PA 300 µg |  | tissue uptake | 2 ± 0.3 %ID/g |
| OC(CCN1CCCCC1)(c1ccccc1)C1CC2C=CC1C2 (stereo not shown) | Toxoplasma gondii | parasite growth, luciferase reporter | HFF, tachyzoite | 72 h |  | EC90 | 1970 µM |
| OC(Cn1cncn1)(Cn1cncn1)c1ccc(F)cc1F | Nakaseomyces glabratus |  | CG12, azole-susceptible, RPMI 1640 | 24 h, 35 °C |  | MIC | 3.12 µM (≈ 0.957 µg/mL) |
| Oc1ccccc1-c1n[nH]cc1-c1ccnc2ccccc12 | FUN31 (Candida albicans) | kinase binding, MIB/MS competition | Candida albicans lysate | 10 µM | reference: DMSO | log2 fold change | -0.44 |
| Nc1nc(-c2ccccc2)nc2[nH]nc(Nc3ccc(C(F)(F)F)cc3)c12 | coxsackievirus B3 |  | 31-1-93, NMRI mice, CVB3 chronic myocarditis | oral, 100 mg/kg twice daily, day 24, dosed days 1 to 7, score scale 0 to 7 | direction not given | clinical score | 0.11 |
| COc1ccccc1C(=O)C#Cc1ccc(F)c(F)c1 | Pseudomonas aeruginosa | RT-qPCR, item: rhlA | biofilm cells | 10 µM, 24 h | reference: untreated | mRNA level | 35% |
| Oc1ncnc2[nH]ncc12 | Toxoplasma gondii | parasite growth | HFF, bradyzoite, alkaline-induced |  |  | EC90 | 30 µM |
| O=C(C#Cc1ccc(F)c(F)c1)c1cccc(Cl)c1 | Pseudomonas aeruginosa | RT-qPCR, item: phzC1 | biofilm cells | 10 µM, 24 h | reference: untreated | mRNA level | 49% |
| CC(C)n1ncc2c(C(=O)NCC3(C)CNC3)cc(C3CC3)nc21 | Enterovirus D68 | viral replication | RD, US/MO/14-18947 | 0.001 µM | reference: untreated | plaque area | 106% and 94.1% |
| Cn1cc(-c2ccc(-c3cncc(Cl)c3N3CCC4(CCNC4=O)CC3)cc2)cn1 | COLO 205 | gene expression, microarray, item: CDKN1C mRNA |  | concentration not given, 6 h | reference: untreated cells | log2 fold change | 1.74 |
| CC(=O)[C@]1(O)Cc2c(O)c3c(c(O)c2[C@@H](O[C@H]2C[C@H](N)[C@H](O)[C@H](C)O2)C1)C(=O)c1ccccc1C3=O | Toxoplasma gondii | parasite growth | HFF, bradyzoite, alkaline-induced |  |  | EC90 | 3.18 µM |
| O=C(C#Cc1ccc(F)c(F)c1)c1ccccc1 | Pseudomonas aeruginosa | static biofilm | PA14 | 10 µM, 24 h | reference: DMSO | biofilm formation | 77% |
| c1coc(-c2n[nH]cc2-c2ccnc3ccccc23)c1 | RCK2 (Candida albicans) | kinase binding, MIB/MS competition | Candida albicans lysate | 10 µM | reference: DMSO | log2 fold change | -0.17 |

Some of these lines once more:
| SMILES | target or system | assay | test system | setting | how to read | endpoint | value |
| --- | --- | --- | --- | --- | --- | --- | --- |
| OC(Cn1cncn1)(Cn1cncn1)c1ccc(F)cc1F | Nakaseomyces glabratus |  | CG12, azole-susceptible, RPMI 1640 | 24 h, 35 °C |  | MIC | 3.12 µM (≈ 0.957 µg/mL) |
| Oc1ncnc2[nH]ncc12 | Toxoplasma gondii | parasite growth | HFF, bradyzoite, alkaline-induced |  |  | EC90 | 30 µM |
